Experimental data from different studies.
Numbered parts are unrelated; each lists some results of a single study.

Study 1
Target: Histone acetyltransferase KAT6A, both winged helices, GST fusion (KAT6A, Homo sapiens, UniProt Q92794, residues 1-181)
Technique: protein binding microarray
Molecule type: double-stranded DNA, one strand shown
Sample: in vitro
Concentration: not given
Setting: 8-mer, flanks averaged, mean of 2 arrays, mostly near background
Baseline: not given
Reading: higher = stronger binding
Construct (chain): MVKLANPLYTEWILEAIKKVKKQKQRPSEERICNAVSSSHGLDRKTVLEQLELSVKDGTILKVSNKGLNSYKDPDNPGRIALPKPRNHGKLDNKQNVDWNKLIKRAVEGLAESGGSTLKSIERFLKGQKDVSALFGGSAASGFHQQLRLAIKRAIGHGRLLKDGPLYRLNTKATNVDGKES
`CGAGTCTC` gave an E-score of -0.0773.
The E-score of `AGAAAGGC` is reported as 0.0423.
With `CGAACAAC` the E-score was 0.0323.
`CCACAACC` gave an E-score of 0.00588.
`CTCAATGA` gave an E-score of -0.19.
`AGCATTCA` has an E-score of -0.107.
The E-score of `CCAGAAGA` is reported as -0.28.
`AGTTTAAG` has an E-score of -0.171.
With `GAGATTAC` the E-score was 0.0901.
For `TTACAGAA`, the E-score was -0.196.
`ACGAAGAC` gave an E-score of -0.0775.
With `ACTGCCGC` the E-score was 0.274.
For `CGAGCAGA`, the E-score was -0.0992.
`CCTACGCA` has an E-score of -0.0513.
For `ACACAACC`, the E-score was 0.0214.
`AAGTGAAT` gave an E-score of -0.0534.
For `GCGAGGCA`, the E-score was 0.0402.
The E-score of `GGGAACCC` is reported as 0.0587.
With `ACGTAACA` the E-score was -0.0877.
`CAAAGGGC` gave an E-score of -0.144.
The E-score of `GACGTGTA` is reported as -0.00413.
With `GGGACGGA` the E-score was 0.185.
With `CCCTACGA` the E-score was -0.175.
The E-score of `ACCAAGCG` is reported as 0.164.
`TGGAAACA` gave an E-score of -0.123.

Study 2
Target: Ras GTPase-activating protein-binding protein 1, RRM domain (G3BP1, Homo sapiens, UniProt Q13283)
UniProt Q13283, sequence (whole entry, looked up): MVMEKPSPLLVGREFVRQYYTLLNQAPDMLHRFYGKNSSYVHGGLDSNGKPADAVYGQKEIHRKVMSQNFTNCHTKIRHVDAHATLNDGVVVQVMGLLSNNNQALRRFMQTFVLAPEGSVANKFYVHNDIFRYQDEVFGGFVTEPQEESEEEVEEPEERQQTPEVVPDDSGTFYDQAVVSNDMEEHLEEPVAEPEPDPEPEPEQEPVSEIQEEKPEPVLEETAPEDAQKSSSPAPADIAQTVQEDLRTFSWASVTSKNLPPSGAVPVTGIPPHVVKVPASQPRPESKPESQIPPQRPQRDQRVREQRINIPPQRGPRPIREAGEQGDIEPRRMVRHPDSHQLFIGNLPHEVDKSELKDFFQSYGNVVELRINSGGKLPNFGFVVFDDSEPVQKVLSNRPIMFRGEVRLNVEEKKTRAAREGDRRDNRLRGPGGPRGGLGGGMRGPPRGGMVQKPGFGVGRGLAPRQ
Technique: RNA Bind-n-Seq
Molecule type: RNA
Sample: in vitro
Concentration: 1 µM
Setting: whole 134-nt RNA, ends assumed
With: 150 mM KCl
Baseline: input library
Reading: higher = stronger binding
`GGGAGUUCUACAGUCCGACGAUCUCAAGUCCUGUGCUACACAUCGUAUGUACCGAAUCGGGGAGGGGUGGGGAGGGGAAAGUAUUAUGUUACGCCGUUCGGAUCUGCACUUCCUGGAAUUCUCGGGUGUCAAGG` gave a log2 enrichment of 0.968.
`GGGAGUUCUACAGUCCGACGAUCUUAAAGAAGAGGGUGUGCGGGACGUCCUUAAGGAUGUACUGCUCCCAUGGUACAAUGCCUAUCGCUUCUUAAUCCAGAACGUUCUGAGGCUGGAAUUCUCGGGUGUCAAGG` has a log2 enrichment of -0.253.
With `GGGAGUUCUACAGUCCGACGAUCUGGGAGGUGGAUUUUGUUUAUUUUUUUAGCUCAUUUCCGGGGGUGGGAAUUUUUUUUUAAUAUGUGUCAUGAAUAAAGUUGUUUUUGAAAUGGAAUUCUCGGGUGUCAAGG` the log2 enrichment was 1.29.
With `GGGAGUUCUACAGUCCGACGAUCACCAUGCAGGUGGGCAUCUUUGGGAAGUGGGGCAAGGGGGGGAUAGGGAGGGGGGUAACACUUUGGGAACAGAUGGUCCCAGGUCGUUUCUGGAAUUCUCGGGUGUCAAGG` the log2 enrichment was 1.05.
For `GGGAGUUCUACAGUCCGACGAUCAGUCCUGUGCUACACAUCGUAUGUACCGAAUCGGGUUUUGGGGUUUUGGGGUUUUGGAAAGUAUUAUGUUACGCCGUUCGGAUCUGCACUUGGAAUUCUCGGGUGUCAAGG`, the log2 enrichment was -0.235.
`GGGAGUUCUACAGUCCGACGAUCCUCAAGUCCUGUGCUACACAUCGUAUGUACCGAAUCGGGGAAGGGGAAGGAAGGAAAGUAUUAUGUUACGCCGUUCGGAUCUGCACUUCCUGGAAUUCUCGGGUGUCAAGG` has a log2 enrichment of -0.416.
For `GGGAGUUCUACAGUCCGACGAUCACCAUGCAGGUGGGCAUCUUUUGGAAGUGGGGCAAGGGGGGGAUAGGGAGGGGGGUAACACUUUGGGAACAGGUGGUCCCAGGUCGUUUCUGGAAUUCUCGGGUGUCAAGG`, the log2 enrichment was -0.508.
The log2 enrichment of `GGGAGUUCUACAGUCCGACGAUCGUCCUGUGCUACACAUCGUAUGUACCGAAUCGGCCCCCCGGCCCCCCGGCCCCCCGGGAAAGUAUUAUGUUACGCCGUUCGGAUCUGCACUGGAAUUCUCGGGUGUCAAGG` is reported as -0.604.
The log2 enrichment of `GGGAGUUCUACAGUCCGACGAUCUUCCUCAGGGUAGAACUGGAUGACUCAGACGUGUUCCAUGGUGAACCUGAACCUGAGGAGCUGCCUGGAGGUAAGGGCCCUGAACUGUCCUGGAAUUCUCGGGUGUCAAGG` is reported as -0.557.
`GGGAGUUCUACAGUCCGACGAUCUCCUGUGCUACACAUCGUAUGUACCGAAUCGGGCCCCCCGGCCCCCCGGGCCCCCCGGGGAAAGUAUUAUGUUACGCCGUUCGGAUCUGCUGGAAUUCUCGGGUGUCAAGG` gave a log2 enrichment of -0.378.

Study 3
Target: RNA binding protein fox-1 homolog 2, RRM domain, GST-SBP tag (RBFOX2, Homo sapiens, UniProt O43251-10, residues 100-194)
Technique: RNA Bind-n-Seq
Molecule type: RNA
Sample: in vitro
Concentration: 365 nM
Setting: natural RNA segment, single round, ends assumed
Baseline: no-protein control
Reading: higher = stronger binding
Target sequence (chain): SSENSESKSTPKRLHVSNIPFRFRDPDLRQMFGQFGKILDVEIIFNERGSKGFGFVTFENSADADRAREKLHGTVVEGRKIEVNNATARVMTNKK
`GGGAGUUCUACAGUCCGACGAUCGGACUUCGACCAGCAUCUGAAGGGAACCAGGUUGUGUGUGCUUGCAGUUUGCUCCCUGUUGACAUAGGGAAAAACUGAGUGUCAUAGGCAGUAUUUCACAGUGGACAUUUUGGAAUUCUCGGGUGCCAA`: “RBNS enrichment (R)” 0.37.
Under “RBNS enrichment (R)”, `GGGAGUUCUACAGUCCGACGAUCAAGGUCACACCAUGAUGGAGAACACAGGUCAUUUGGGUACGUGUAAUCAAAGUGCCCUCCCAAAUCAGUUCUCCUUUUCGUAUGAACAGCAUCUCUACUUUUAAAGAGGAUGGAAUUCUCGGGUGCCAA` is recorded as 0.368.
`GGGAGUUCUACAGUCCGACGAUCUUUUAAGAUGAAUUAAGGACUAUUAGCUCGAACUUCGAUGCAGAGUUUGUAAAUAAGGGUGUCUGUGCAGAUUUCCCCACAUUUAUUUGUAUAAAAAUUUCUCAUCUUUUUGGAAUUCUCGGGUGCCAA`: “RBNS enrichment (R)” 0.542.
`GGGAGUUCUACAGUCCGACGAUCAUACCCUGUCCAUUGGUAGAUGUCUUGCUUCUUCUGGUUCAGGCAGGGAAAACACUUGGACUCUUCUUGCAGCACUAAAACUAACCUGGAAUCGCAUGUAGUAGAGCUGAUGGAAUUCUCGGGUGCCAA` — result for “RBNS enrichment (R)”: 13.3.
`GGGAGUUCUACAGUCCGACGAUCUCUCUGCUGCACCACUGUCAGACUGGGCUCUAACCCAAGUGGAAUGCAACUGAGAGGGUCUUCCUGGGCCCGCCUUCCCCGACAGCCCUAGUGUUACACUGGUUCUGGAGUGGAAUUCUCGGGUGCCAA`: “RBNS enrichment (R)” 0.301.
`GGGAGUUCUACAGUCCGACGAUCUGCACAGAUGUUGAAUGAACAUCUGUUUGGGGCAUUGGAGGGAAAAGGAAAGGACCCUGAAGCCAAUAUCUGAUUCUCGGCUGCACCUUCUCUUGGCCACCCUGGCCCUGUGGAAUUCUCGGGUGCCAA` — result for “RBNS enrichment (R)”: 0.243.
`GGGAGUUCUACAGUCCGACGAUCUACUUAUAUAUGAUGUUUCCAUAUAUGUGCUGUGUGUUUAAGUUUUGUAUCAUCCAGACUGAUACCAAAUUUUAAGGUUUUUUUUUUUUUAACAAAGACAAUACACACAUUGGAAUUCUCGGGUGCCAA` — result for “RBNS enrichment (R)”: 0.568.
Under “RBNS enrichment (R)”, `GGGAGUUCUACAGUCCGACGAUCCAUGGCCACCACGCCCGGCCAGUUGCUGCUUUUCUUAUCCCCACAGCUUCUAACCAUUAUGUGCUGAGUAAAUAAUGCUACCUAUGAUUUUAGAACGGAUUUCUCAGGUAUGGAAUUCUCGGGUGCCAA` is recorded as 0.625.
`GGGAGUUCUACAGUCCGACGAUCUCCUAACAAGUGUAUCUCGAUUAAUAACCUGCCAGUCCCAGAUCACACAUCAUCAUCGAAGUCUUCCCCAGUUAUAAAGAGGUCACAUAGUCGUGUGGGUCGAGGAUUCUUGGAAUUCUCGGGUGCCAA` — result for “RBNS enrichment (R)”: 0.355.

Study 4
Target: Interferon regulatory factor 7, full length, phosphomimetic (IRF7, Homo sapiens, UniProt Q92985, residues 1-503, S471D/S472D/S475D/S476D/S477D/S483D/S484D/S487D)
UniProt Q92985, sequence (whole entry, unmodified, looked up): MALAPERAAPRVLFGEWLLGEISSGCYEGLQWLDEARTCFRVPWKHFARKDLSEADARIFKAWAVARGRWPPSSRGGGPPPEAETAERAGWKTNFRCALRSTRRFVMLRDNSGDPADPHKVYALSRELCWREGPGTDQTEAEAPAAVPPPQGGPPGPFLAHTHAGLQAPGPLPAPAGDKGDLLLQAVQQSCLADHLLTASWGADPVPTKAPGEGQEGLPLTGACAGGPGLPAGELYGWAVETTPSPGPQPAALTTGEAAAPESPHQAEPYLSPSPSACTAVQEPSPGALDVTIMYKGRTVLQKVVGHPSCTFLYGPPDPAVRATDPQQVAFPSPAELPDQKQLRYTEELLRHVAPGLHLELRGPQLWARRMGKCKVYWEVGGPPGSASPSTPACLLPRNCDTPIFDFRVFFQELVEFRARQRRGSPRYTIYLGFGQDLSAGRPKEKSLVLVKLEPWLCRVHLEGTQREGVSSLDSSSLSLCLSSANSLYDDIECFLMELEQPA
Technique: protein-binding microarray
Molecule type: double-stranded DNA, one strand shown
Sample: in vitro
Concentration: 2200 nM top
Setting: 60-bp whole probe
With: salmon DNA 0.4 mg/ml
Baseline: random background probes
Reading: higher = stronger binding
Shared flanks, not repeated: GCCTAGCAC … GTCTTGATTCGCTTGACGCTGCTG
`GACGCTTTCGGGACTGGAGACGTGCTA`: “fitted relative affinity” 4.31 z-score.
`TTAGGTCTCGGTTTCAGTTAGTGCTAG` — result for “fitted relative affinity”: 2.84 z-score.
For `TTAGTACTGGGTATCGGTTAGTGCTAG`, “fitted relative affinity” read 0.626 z-score.
Under “fitted relative affinity”, `AACAGTTCATGTTTTGGAAAGTGCTAG` is recorded as 0.793 z-score.
Under “fitted relative affinity”, `TCCAGCCTGTTTCCAGCAGGGTGCTAG` is recorded as 0.0763 z-score.
Under “fitted relative affinity”, `TCAAACATCATTTTTCCACTGTGCTAG` is recorded as 1.08 z-score.
`TCATGTTTCTCAACCAGACTGTGCTAG` — result for “fitted relative affinity”: 1.85 z-score.
Under “fitted relative affinity”, `TTAGGACTTGGTTTCGGTTAGTGCTAG` is recorded as 6.17 z-score.
For `TGCTTTCTCCCAAGTCTTGTTGTGCTA`, “fitted relative affinity” read 2.01 z-score.
Under “fitted relative affinity”, `TTAGGTATCGTTATCCTTTAGTGCTAG` is recorded as 1.34 z-score.
Under “fitted relative affinity”, `GACGGGATCGACTTTCGGGACGTGCTA` is recorded as 2.39 z-score.
For `TTAGGTTCCGACTTTCGGTTAGTGCTA`, “fitted relative affinity” read 6.25 z-score.
`GACGATCTCAGTCTCGAGTCGTGCTAG` — result for “fitted relative affinity”: 0.618 z-score.
Under “fitted relative affinity”, `TCACTGCTCCTTCTGACACTGTGCTAG` is recorded as 1.55 z-score.
For `TTAGATTTCAGTTCCGAATAGTGCTAG`, “fitted relative affinity” read 1.54 z-score.
Under “fitted relative affinity”, `CTGCTGATCGGTTGGGGTGGGTGCTAG` is recorded as 0.0556 z-score.
`GACGGACTGGGTCTCGAGACGTGCTAG`: “fitted relative affinity” -0.722 z-score.
`TTAGGTATCGGTATCGTTTAGTGCTAG` — result for “fitted relative affinity”: 0.936 z-score.
`GACGGACTACTACTGCTGACGTGCTAG`: “fitted relative affinity” 0.325 z-score.
Under “fitted relative affinity”, `TCATTTTCCTATGTCATACTGTGCTAG` is recorded as 4.26 z-score.
For `TCAGCTTCCTCTTTCACACTGTGCTAG`, “fitted relative affinity” read 3 z-score.
Under “fitted relative affinity”, `TTAGGTTTCGGTCTCGGGTAGTGCTAG` is recorded as 6.43 z-score.
`TCAGTTACCCATCTCAAACTGTGCTAG` — result for “fitted relative affinity”: 1.41 z-score.
Under “fitted relative affinity”, `TTAGGTTTCCTACTGCTTTGGTGCTAG` is recorded as 1.41 z-score.
For `GACCAACTGGGGACTGGAGACGTGCTA`, “fitted relative affinity” read -0.673 z-score.

Some of these lines once more (study 4):
`TCATGTTTCTCAACCAGACTGTGCTAG` — result for “fitted relative affinity”: 1.85 z-score.
Under “fitted relative affinity”, `TTAGGACTTGGTTTCGGTTAGTGCTAG` is recorded as 6.17 z-score.
For `TGCTTTCTCCCAAGTCTTGTTGTGCTA`, “fitted relative affinity” read 2.01 z-score.
Under “fitted relative affinity”, `TTAGGTATCGTTATCCTTTAGTGCTAG` is recorded as 1.34 z-score.
Under “fitted relative affinity”, `GACGGGATCGACTTTCGGGACGTGCTA` is recorded as 2.39 z-score.
